# Experimental data pooled from the literature.
# Protocols differ between the studies behind these lines.
# Target: Mitogen-activated protein kinase 12 (MAPK12, Homo sapiens, UniProt P53778)
Structure (SMILES),assay,setting,how to read,measurement,result
C=CC(=O)N1CCc2ccc(-n3c(=O)ccc4cnc5ccc(-c6cnn(C)c6)cc5c43)cc21,KINOMEscan,1 µM,baseline: DMSO control,remaining binding,98%
Cc1cccc(O[C@H]2CCC[C@@H](C(C)CNCc3ccncc3)C2)c1 (relative stereo),"enzyme activity, inhibitor",10 µM,,inhibition,-1%
Nc1ncc(-c2cc(-c3cnn(CC(F)(F)F)c3)ncc2F)nc1C(=O)NC1CNCC(F)C1 (stereo not drawn),enzyme activity,1 µM,baseline: DMSO control,remaining activity,110%
CNC(=O)C1CCN(c2cc(C)c(F)cc2NC(=O)c2ccc(-c3cc(O)ccc3C)c(C)c2)CC1,"binding, competition with immobilised ligand",1 µM,,remaining binding,100%
CC(C)=CC1OC(C)(C)C2C=C3C(=O)C(Cl)=CC(O)C3C3C(O)C4OC4C(=O)C132 (stereo not drawn),"cell-free assay, competition with immobilised ligand",10 µM,,remaining binding,59%
Cc1cccc(-c2ccc3nc(NC(=O)C4CCCO4)nn3c2)c1 (stereo not drawn),"enzyme activity, Dundee kinase panel",10 µM,,remaining activity,102%
Cc1ccc(-c2c(/C=C(\C#N)C(=O)NC(C)C)n(CCCO)c3ncnc(N)c23)cc1,"cell-free assay, competition with immobilised ligand",1 µM,,remaining binding,100%
CNC1C[S+]2CC[S+]3CC[S+](C1)[Ru-4]321([N]=C=S)[n]2c3ccc(OC)cc3c3c4c(c5cc(F)c[n+]1c5c32)C(=O)NC4=O (stereo not drawn),KinomeScan,0.1 µM,baseline: untreated,remaining binding,94%
COc1c(Cl)cccc1Nc1c(-c2ccncc2C#C[C@@]2(C)CCCN2C(=O)/C=C/CN(C)C)[nH]c2c1C(=O)NCC2,"binding, competition with immobilised ligand",3 µM,,remaining binding,60%
COc1cc(Nc2nccc(-c3cnn4nc(OC)ccc34)n2)cc(C(F)(F)F)c1,"binding, competition with immobilised ligand",1 µM,,remaining binding,100%
C=CC(=O)Nc1cccc(-c2cnc3[nH]cc(C(=O)NC(C)(C)C)c3n2)c1,"enzyme activity, inhibitor",0.1 µM,,inhibition,4%
CCN1CCN(Cc2ccc(NC(=O)c3ccc(C)c(NC(=O)c4cncc(-c5cccs5)c4)c3)cc2C(F)(F)F)CC1,"binding, competition with immobilised ligand",1 µM,,remaining binding,28%
COc1ccc(NC(=O)Nc2ccc3c(c2)C(=O)N(C(C)CO)CC(C)C(CN(C)Cc2ccc4c(c2)OCO4)O3)cc1 (stereo not drawn),"kinase activity, KinaseProfiler","0.03 µM, species human",baseline: control,remaining activity,75%
O=C(Cc1ccc(OCc2ccccc2)cc1)NC1(C(=O)O)CCN(C(=O)c2ccc(-c3cccc(Cl)c3)cc2)CC1,"enzyme activity, inhibitor",10 µM,,activity vs control,116%
NC(=O)[C@@H](O)C[C@H]1CCc2sc3ncnc(O[C@H]4CC[C@H](N5CCOCC5)CC4)c3c21,"enzyme activity, inhibitor",10 µM,,inhibition,-3%
Nc1nc(Nc2ccccc2)sc1C(=O)c1ccccc1,"enzyme activity, inhibitor",10 µM,,remaining activity,53%
Cc1ccc(C)c(-c2ccc3nc(NC(=O)C4CCCCC4)nn3c2)c1,"enzyme activity, Dundee kinase panel",10 µM,,remaining activity,88%
CCn1cc(C(=O)O)c(=O)c2c(N)c(F)c(NC3CCCCC3)cc21,kinase activity,"0.1 µM, together with: ATP at Km",,inhibition,8.4%

# Repeated from above:
Structure (SMILES),assay,setting,how to read,measurement,result
O=C(Cc1ccc(OCc2ccccc2)cc1)NC1(C(=O)O)CCN(C(=O)c2ccc(-c3cccc(Cl)c3)cc2)CC1,"enzyme activity, inhibitor",10 µM,,activity vs control,116%
NC(=O)[C@@H](O)C[C@H]1CCc2sc3ncnc(O[C@H]4CC[C@H](N5CCOCC5)CC4)c3c21,"enzyme activity, inhibitor",10 µM,,inhibition,-3%
